# Assay results from different studies.
# Each numbered part is a random draw from the data of one study; scales do not carry over between parts.
# Sequence of UniProt P42336 (whole entry, unmodified, looked up): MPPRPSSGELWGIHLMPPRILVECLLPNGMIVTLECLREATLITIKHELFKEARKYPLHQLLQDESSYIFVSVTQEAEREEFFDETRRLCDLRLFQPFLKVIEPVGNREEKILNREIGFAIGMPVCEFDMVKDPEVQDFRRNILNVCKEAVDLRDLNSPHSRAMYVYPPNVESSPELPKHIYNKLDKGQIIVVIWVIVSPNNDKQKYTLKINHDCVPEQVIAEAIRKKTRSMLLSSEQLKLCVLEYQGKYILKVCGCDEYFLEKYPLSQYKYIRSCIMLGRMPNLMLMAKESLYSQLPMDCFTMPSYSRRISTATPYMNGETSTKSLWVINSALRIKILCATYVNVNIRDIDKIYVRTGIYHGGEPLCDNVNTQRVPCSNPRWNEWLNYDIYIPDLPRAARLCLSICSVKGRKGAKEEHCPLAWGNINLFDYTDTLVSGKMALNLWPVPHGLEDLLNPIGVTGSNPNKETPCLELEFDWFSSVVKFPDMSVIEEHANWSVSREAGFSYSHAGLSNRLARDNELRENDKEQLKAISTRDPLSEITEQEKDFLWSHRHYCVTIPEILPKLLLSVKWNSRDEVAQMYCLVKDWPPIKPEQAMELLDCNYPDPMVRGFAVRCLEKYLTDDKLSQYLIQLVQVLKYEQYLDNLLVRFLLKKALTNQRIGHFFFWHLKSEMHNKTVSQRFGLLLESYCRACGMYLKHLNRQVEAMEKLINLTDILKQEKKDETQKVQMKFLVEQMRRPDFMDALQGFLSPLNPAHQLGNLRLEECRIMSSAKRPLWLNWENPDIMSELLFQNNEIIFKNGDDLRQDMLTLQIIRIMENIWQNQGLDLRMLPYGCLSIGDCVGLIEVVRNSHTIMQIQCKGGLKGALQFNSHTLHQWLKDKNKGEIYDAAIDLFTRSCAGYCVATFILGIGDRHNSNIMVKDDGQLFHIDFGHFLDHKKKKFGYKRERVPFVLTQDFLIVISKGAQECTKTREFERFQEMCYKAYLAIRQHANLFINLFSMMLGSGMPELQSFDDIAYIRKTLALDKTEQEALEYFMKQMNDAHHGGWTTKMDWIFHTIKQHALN
# Sequence of UniProt Q99755 (whole entry, looked up): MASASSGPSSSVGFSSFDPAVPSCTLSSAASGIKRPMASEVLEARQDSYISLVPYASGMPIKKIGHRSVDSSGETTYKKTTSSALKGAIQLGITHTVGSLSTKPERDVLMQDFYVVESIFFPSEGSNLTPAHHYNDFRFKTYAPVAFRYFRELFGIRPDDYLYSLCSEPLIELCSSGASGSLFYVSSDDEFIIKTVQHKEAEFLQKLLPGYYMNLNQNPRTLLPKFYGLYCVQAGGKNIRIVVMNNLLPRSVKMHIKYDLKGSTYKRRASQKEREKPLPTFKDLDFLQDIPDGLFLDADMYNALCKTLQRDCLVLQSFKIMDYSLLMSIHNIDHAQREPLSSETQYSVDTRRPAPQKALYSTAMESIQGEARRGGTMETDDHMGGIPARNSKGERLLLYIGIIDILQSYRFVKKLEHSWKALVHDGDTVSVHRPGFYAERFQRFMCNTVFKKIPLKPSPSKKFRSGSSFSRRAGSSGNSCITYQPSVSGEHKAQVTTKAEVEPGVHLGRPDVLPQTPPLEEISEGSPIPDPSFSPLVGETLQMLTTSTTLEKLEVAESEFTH
# Sequence of UniProt P68400 (whole entry, looked up): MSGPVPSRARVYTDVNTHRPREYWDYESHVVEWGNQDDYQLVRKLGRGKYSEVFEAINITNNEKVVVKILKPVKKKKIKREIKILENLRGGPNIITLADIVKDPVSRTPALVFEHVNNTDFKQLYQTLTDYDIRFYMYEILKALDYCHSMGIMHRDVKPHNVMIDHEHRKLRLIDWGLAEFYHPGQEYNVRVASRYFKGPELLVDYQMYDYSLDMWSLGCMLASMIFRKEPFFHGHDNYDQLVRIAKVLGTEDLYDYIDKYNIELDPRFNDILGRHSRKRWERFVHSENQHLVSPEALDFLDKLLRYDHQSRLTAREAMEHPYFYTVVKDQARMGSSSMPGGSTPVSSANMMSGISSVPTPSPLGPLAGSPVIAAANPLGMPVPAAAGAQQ
# Sequence of UniProt O15197 (whole entry, looked up): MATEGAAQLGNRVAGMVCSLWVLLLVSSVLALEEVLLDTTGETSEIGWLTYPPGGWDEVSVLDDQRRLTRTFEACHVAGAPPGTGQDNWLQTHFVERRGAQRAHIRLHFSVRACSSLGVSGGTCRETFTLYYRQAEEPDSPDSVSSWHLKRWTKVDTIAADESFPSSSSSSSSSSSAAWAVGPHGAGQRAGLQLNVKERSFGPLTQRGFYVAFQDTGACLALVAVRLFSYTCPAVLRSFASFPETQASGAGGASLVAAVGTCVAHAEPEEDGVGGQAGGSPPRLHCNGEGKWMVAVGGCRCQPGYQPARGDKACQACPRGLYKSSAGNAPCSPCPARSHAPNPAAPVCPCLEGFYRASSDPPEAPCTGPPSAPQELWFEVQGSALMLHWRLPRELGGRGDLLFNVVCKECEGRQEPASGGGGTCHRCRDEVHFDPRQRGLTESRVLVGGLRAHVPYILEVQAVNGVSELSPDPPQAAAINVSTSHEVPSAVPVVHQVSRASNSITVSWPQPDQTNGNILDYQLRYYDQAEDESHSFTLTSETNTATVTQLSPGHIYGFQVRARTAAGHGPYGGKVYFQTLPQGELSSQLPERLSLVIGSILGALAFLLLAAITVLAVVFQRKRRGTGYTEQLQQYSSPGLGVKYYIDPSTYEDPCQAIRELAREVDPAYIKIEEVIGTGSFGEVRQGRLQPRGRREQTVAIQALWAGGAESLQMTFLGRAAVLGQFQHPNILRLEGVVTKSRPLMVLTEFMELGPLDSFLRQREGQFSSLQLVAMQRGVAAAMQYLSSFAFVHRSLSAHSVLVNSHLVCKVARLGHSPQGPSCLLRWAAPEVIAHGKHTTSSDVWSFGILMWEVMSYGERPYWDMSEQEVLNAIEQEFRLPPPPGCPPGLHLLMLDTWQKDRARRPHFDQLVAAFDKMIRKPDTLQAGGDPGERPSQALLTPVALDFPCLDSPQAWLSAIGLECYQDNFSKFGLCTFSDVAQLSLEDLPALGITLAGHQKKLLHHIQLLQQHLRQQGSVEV
# Sequence of UniProt P54753 (whole entry, looked up): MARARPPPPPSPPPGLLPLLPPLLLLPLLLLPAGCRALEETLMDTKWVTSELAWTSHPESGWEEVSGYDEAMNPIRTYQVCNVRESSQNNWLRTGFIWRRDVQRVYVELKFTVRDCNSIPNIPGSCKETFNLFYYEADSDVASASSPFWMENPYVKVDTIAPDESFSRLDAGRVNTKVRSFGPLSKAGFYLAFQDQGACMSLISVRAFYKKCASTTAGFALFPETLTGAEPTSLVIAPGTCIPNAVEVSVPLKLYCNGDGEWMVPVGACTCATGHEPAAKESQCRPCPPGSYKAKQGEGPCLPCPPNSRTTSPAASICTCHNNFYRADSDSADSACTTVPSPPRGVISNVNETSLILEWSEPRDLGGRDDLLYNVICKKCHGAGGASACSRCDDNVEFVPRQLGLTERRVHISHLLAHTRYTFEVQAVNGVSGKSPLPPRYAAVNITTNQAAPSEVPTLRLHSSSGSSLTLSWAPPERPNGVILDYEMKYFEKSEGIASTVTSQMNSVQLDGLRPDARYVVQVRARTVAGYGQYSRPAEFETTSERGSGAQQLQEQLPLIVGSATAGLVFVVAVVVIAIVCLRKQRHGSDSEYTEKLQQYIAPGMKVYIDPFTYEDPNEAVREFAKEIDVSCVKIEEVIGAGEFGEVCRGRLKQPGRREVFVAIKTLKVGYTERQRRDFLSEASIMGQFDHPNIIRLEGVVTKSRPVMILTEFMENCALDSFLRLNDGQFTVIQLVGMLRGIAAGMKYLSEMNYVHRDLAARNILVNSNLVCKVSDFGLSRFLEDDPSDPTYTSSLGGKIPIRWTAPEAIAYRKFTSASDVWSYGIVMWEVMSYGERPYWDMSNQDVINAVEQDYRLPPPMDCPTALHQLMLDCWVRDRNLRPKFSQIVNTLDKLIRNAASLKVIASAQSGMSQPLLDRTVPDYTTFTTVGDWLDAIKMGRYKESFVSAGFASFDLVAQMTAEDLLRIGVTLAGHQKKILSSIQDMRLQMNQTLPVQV
# Sequence of UniProt O94768 (whole entry, looked up): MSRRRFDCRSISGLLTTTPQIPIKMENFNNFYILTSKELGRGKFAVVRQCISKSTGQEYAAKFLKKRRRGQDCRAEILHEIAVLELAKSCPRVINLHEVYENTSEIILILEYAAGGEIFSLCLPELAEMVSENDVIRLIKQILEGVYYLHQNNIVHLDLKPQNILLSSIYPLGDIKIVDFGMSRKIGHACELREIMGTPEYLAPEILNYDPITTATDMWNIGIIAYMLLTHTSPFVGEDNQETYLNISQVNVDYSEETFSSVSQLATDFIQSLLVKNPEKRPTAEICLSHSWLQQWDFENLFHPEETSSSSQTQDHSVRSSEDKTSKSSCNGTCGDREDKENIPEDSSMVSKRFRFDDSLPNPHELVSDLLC

# Block 1
# Cell line: A-375
# Tested at: 100 µM
# Time: 18 h
SMILES,viability [%]
Cc1ccc(Nc2nccc(N(C)c3ccc4c(C)n(C)nc4c3)n2)cc1S(N)(=O)=O,68
CC(C)NCC(O)c1ccc(O)c(O)c1 (centres unmarked),131
O=C(O)c1cc(-c2ccc(F)cc2F)ccc1O,91
CCOC(=O)Nc1ccc(NCc2ccc(F)cc2)nc1N,104
COc1cc2ccc(=O)oc2c(O)c1O,109
N#Cc1ccc(C(c2ccc(C#N)cc2)n2cncn2)cc1,111
COc1cc(C(C)=O)ccc1OCCCN1CCC(c2noc3cc(F)ccc23)CC1,50.8
Oc1ncnc2[nH]ncc12,97.5
N[C@H](Cc1ccccc1)C(=O)O,97.7
Cc1cc(NS(=O)(=O)c2ccc(N)cc2)nc(C)n1,95.7
N=C(N/N=C/c1ccc(Cl)cc1)N/N=C/c1ccc(Cl)cc1,9.63
C[C@@H]1CC(=O)NN=C1c1ccc(NN=C(C#N)C#N)cc1,96.1
Cc1cccc(Nc2cc(Cl)nc(SCC(=O)O)n2)c1C,111
CC(=O)O[C@]1(C(C)=O)CC[C@H]2[C@@H]3C=C(Cl)C4=CC(=O)CC[C@]4(C)[C@H]3CC[C@@]21C,37.3
O=C(O)[C@H](CC(=O)N1C[C@H]2CCCC[C@H]2C1)Cc1ccccc1,110
CC(=O)[C@@]1(O)CC[C@H]2[C@@H]3CCC4=CC(=O)CC[C@]4(C)[C@H]3CC[C@@]21C,89
CC1(C)[C@@H](OC(=O)CCC(=O)O)CC[C@]2(C)[C@H]3C(=O)C=C4[C@@H]5C[C@@](C)(C(=O)O)CC[C@]5(C)CC[C@@]4(C)[C@]3(C)CC[C@@H]12,83.7
COc1ccc2c(c1)c(CC(=O)OCC(=O)O)c(C)n2C(=O)c1ccc(Cl)cc1,85.5

# Block 2
# Species: mouse
# Medium: microsomes or S9
# Tested at: 2 µM
# Time: 0.5 h
SMILES,remaining compound
COc1cccc2c1Oc1ccsc1C=C2C#N,64.2%
COCCNC(=O)NC1(c2nc(C)no2)CCCCC1,94.1%
CCNC(=O)C(C)N(c1ccccc1)S(C)(=O)=O (centres unmarked),79.4%
O=c1c(C2CCCCC2)c(O)nc2n1CC(O)CS2 (centres unmarked),72.7%
N[C@@H](CC(=O)N1CCCCCN1C(=O)CN1CCc2ccccc2C1)Cc1cc(F)c(F)cc1F,6.47%
CCOc1cc(=O)n2c(c1C(=O)NC1CCN(Cc3ccccc3)CC1)CCCCC2,49.2%
CCCc1nc(C(=O)N2C[C@@H](CN3C[C@@H](C)O[C@@H](C)C3)[C@@H](CO)C2)cs1,43.1%
Oc1ccc(-c2nccn2Cc2csc(-c3ncccn3)n2)cc1,35.8%
O=C(c1ccc2[nH]cnc2c1)N1CCc2nc3cc(-c4ccccc4Cl)[nH]n3c(=O)c2C1,72.8%
CCOC(=O)Cn1c(=O)n(-c2cccc(O)c2)c2ncnc(N)c21,75.9%
COc1ccc(N(C)C(=O)c2cc(S(=O)(=O)N3CCc4ccccc43)cn2C)c(OC)c1,< 1%
Cc1ncsc1CCOC(=O)c1ccc(Cl)cc1,0.625%
O=C(C1CC(=O)N(C2CCCC2)C1)N1CCC(c2nnc3n2CCNC3)CC1 (centres unmarked),86.9%
Cc1cc2c(cc1S(=O)(=O)N(C)CC1OC3CCCCC3c3sccc31)NC(=O)CO2 (centres unmarked),83.6%
CCN(C(=O)c1cc(C)c(C)[nH]c1=O)[C@H]1COC[C@@H]1O,97.6%
N#Cc1cc(-n2ccnc2-c2cc3n(n2)CCNC3)ccc1N1CCOCC1,65.7%
CN1C(=O)c2ccccc2C(C(=O)Nc2nc3ccccc3[nH]2)C1c1ccccc1 (centres unmarked),24%
Cc1cc2cc(NC(=O)c3cc4nccc(-c5cnn(C)c5C)n4n3)cc(Cl)c2o1,> 100%

# Block 3
# Target: Serine/threonine-protein kinase 24 (STK24, Homo sapiens, UniProt Q9Y6E0)
# Sequence of UniProt Q9Y6E0 (whole entry, looked up): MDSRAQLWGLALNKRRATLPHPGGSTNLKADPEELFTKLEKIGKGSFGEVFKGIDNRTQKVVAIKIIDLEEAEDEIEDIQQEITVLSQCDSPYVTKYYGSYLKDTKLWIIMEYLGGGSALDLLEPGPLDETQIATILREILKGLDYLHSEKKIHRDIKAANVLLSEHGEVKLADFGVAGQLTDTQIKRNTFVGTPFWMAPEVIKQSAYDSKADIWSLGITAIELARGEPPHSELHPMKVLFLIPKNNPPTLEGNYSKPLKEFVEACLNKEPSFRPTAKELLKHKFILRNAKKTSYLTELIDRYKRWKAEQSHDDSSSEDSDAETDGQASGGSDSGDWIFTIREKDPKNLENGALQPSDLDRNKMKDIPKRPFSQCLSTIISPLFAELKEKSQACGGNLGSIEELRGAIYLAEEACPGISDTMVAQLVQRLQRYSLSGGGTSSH
# Read-out: enzyme activity
# Mode: inhibitor
# Tested at: 0.5 µM
# Relative to: control
SMILES,remaining activity [%]
Fc1ccc(-c2nc3n(c2-c2ccncc2)CCS3)cc1,94.2
NC(=O)c1ccc(N(C(N)=O)c2c(F)cccc2F)nc1-c1ccc(F)cc1F,105
Cc1cncc2cccc(S(=O)(=O)N3CCCN(C(=O)CN)C[C@@H]3C)c12,92.4
CCCC(=O)Oc1ccc2[nH]c(C(=O)c3cc4ccccc4[nH]3)cc2c1,95.5
O=C1NC(=O)C(c2c[nH]c3ccccc23)=C1c1c[nH]c2ccccc12,61.5
Cc1cc(Nc2nc(-c3ccccc3)nc3ccccc23)n[nH]1,66
Nc1nccc(-c2c(-c3ccc(F)cc3)ncn2C2CCNCC2)n1,98.8
COc1ccc(S(=O)(=O)N(CCO)c2ccccc2CN(C)CC=Cc2ccc(Cl)cc2)cc1,101
CCc1[nH]c(-c2ccc(OC)cc2)nc1-c1ccncc1,93.2
Cc1ccc(NC2=CC(=O)c3sc(C)nc3C2=O)cc1,82.8
Nc1nc(Nc2ccc(S(N)(=O)=O)cc2)nn1C(=O)c1c(F)cccc1F,76.9
CC(=O)c1ccc(N2CCOCC2)cc1O,99
N#CC(=C(N)Sc1ccc(N)cc1)c1ccccc1C(F)(F)F,89.3
Nc1ncnc2c1cnn2-c1ccccc1,96.3
CC[n+]1c(/C=C/N(C)c2ccccc2)n(-c2ccccc2)c2ccc(-c3nc4ccccc4s3)cc21,99.2
CC#CC(=O)Nc1cc2c(Nc3ccc(F)c(Cl)c3)ncnc2cn1,107
O=C1Cc2c([nH]c3ccc([N+](=O)[O-])cc23)-c2ccccc2N1,66.4
Oc1ccc(Nc2nc(-c3ccc(Cl)cc3)cs2)cc1,94.1
CSc1nc(-c2ccnc(N[C@@H](C)c3ccccc3)c2)c(-c2ccc(F)cc2)[nH]1 (racemic),113

# Block 4
# SMILES: Cc1nccc(COC(=O)N2C[C@@H]3[C@@H](CNC(=O)c4ccc5[nH]nnc5c4)[C@@H]3C2)n1
# Tested at: 1 µM
target,assay,remaining binding [%]
"BUB1 (Homo sapiens, UniProt O43683)","cell-free assay, competition with immobilised ligand",90
"EPHB6 (Homo sapiens, UniProt O15197)","cell-free assay, competition with immobilised ligand",99
"MATK (Homo sapiens, UniProt P42679)","cell-free assay, competition with immobilised ligand",94
"MAP4K1 (Homo sapiens, UniProt Q92918)","cell-free assay, competition with immobilised ligand",100
"RET (Homo sapiens, UniProt P07949, V804M)","cell-free assay, competition with immobilised ligand",100
"Ribosomal protein S6 kinase alpha-5, C-terminal kinase domain (RPS6KA5, Homo sapiens, UniProt O75582)","cell-free assay, competition with immobilised ligand",74
"DAPK2 (Homo sapiens, UniProt Q9UIK4)","cell-free assay, competition with immobilised ligand",82
"MAPK4 (Homo sapiens, UniProt P31152)","cell-free assay, competition with immobilised ligand",94
"SRPK3 (Homo sapiens, UniProt Q9UPE1)","cell-free assay, competition with immobilised ligand",100
"CSNK2A1 (Homo sapiens, UniProt P68400)","cell-free assay, competition with immobilised ligand",81
"Tyrosine-protein kinase ABL1, phosphorylated (ABL1, Homo sapiens, UniProt P00519, F317I)",binding,81
"GSK3A (Homo sapiens, UniProt P49840)","cell-free assay, competition with immobilised ligand",82
"EGFR (Homo sapiens, UniProt P00533, G719C)","cell-free assay, competition with immobilised ligand",100
"MAP3K5 (Homo sapiens, UniProt Q99683)","cell-free assay, competition with immobilised ligand",95
"PIP5K1A (Homo sapiens, UniProt Q99755)","cell-free assay, competition with immobilised ligand",100
"PIM1 (Homo sapiens, UniProt P11309)","cell-free assay, competition with immobilised ligand",96
"PIK3CA (Homo sapiens, UniProt P42336, H1047L)","cell-free assay, competition with immobilised ligand",79
"CDK11B (Homo sapiens, UniProt P21127)","cell-free assay, competition with immobilised ligand",100
"STK24 (Homo sapiens, UniProt Q9Y6E0)","cell-free assay, competition with immobilised ligand",90
"PIK3CB (Homo sapiens, UniProt P42338)","cell-free assay, competition with immobilised ligand",84
"PIK3CA (Homo sapiens, UniProt P42336, E545A)","cell-free assay, competition with immobilised ligand",87
"GRK2 (Homo sapiens, UniProt P25098)","cell-free assay, competition with immobilised ligand",100
"EPHB3 (Homo sapiens, UniProt P54753)","cell-free assay, competition with immobilised ligand",100
"STK17B (Homo sapiens, UniProt O94768)","cell-free assay, competition with immobilised ligand",85
"CDC42BPA (Homo sapiens, UniProt Q5VT25)","cell-free assay, competition with immobilised ligand",100

# A few entries again (block 2):
SMILES,remaining compound
CCNC(=O)C(C)N(c1ccccc1)S(C)(=O)=O (centres unmarked),79.4%
O=c1c(C2CCCCC2)c(O)nc2n1CC(O)CS2 (centres unmarked),72.7%
N[C@@H](CC(=O)N1CCCCCN1C(=O)CN1CCc2ccccc2C1)Cc1cc(F)c(F)cc1F,6.47%
CCOc1cc(=O)n2c(c1C(=O)NC1CCN(Cc3ccccc3)CC1)CCCCC2,49.2%
CCCc1nc(C(=O)N2C[C@@H](CN3C[C@@H](C)O[C@@H](C)C3)[C@@H](CO)C2)cs1,43.1%
Oc1ccc(-c2nccn2Cc2csc(-c3ncccn3)n2)cc1,35.8%
O=C(c1ccc2[nH]cnc2c1)N1CCc2nc3cc(-c4ccccc4Cl)[nH]n3c(=O)c2C1,72.8%
CCOC(=O)Cn1c(=O)n(-c2cccc(O)c2)c2ncnc(N)c21,75.9%
